Measured values gathered from unrelated publications.
Parts stem from different laboratories: compare values within a part only.

Block 1
Target: Histone acetyltransferase KAT6A, winged helix 1, GST fusion (KAT6A, Homo sapiens, UniProt Q92794, residues 1-85)
Technique: protein binding microarray
Molecule type: double-stranded DNA, one strand shown
Sample: in vitro
Concentration: not given
Setting: 8-mer, flanks averaged, mean of 2 arrays, mostly near background
Reference: not given
Reading: higher = stronger binding
Target sequence (chain): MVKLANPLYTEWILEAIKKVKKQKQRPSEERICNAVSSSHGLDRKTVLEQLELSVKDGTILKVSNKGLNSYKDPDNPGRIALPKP
With `ACGTGCAG` the E-score was -0.123.
`GTCCATCA` has an E-score of -0.125.
For `ATCATTCA`, the E-score was -0.0663.

Block 2
Target: Fragile X messenger ribonucleoprotein 1, C-terminal low-complexity region (Fmr1, Mus musculus, UniProt P35922)
Technique: RNA Bind-n-Seq
Molecule type: RNA
Sample: in vitro
Concentration: 200 nM
Setting: whole 134-nt RNA, ends assumed
Together with: 150 mM KCl
Reference: input library
Reading: higher = stronger binding
For `GGGAGUUCUACAGUCCGACGAUCUAACUUUAGAGGAGGAUCUGAUGGAUAUGGCAGUGGACGAGGAUUUGGGGAUGGCUAUAAUGGGUAUGGAGGAGGACCUGGAGGUGGCAAUGGAAUUCUCGGGUGUCAAGG`, the log2 enrichment was 0.257.
`GGGAGUUCUACAGUCCGACGAUCUGGCCCUGGUGGCAUGCGGGGAGGAAGAGGUGGCCUCAUGGAUCGUGGUGGUCCCGGUGGAAUGUUCAGAGGUGGCCGUGUUGGAGACAGUGGAAUUCUCGGGUGUCAAGG` has a log2 enrichment of -0.231.
`GGGAGUUCUACAGUCCGACGAUCUCCUGUGCUACACAUCGUAUGUACCGAAUCGGGUUUUUUGGGUUUUUUGGUUUUUUGGGGAAAGUAUUAUGUUACGCCGUUCGGAUCUGCUGGAAUUCUCGGGUGUCAAGG` gave a log2 enrichment of -0.0969.
`GGGAGUUCUACAGUCCGACGAUCCACAGACAACACGCACCCACACAGACACAGAGGGAAGGGGAUGGGAUGGGGACAGGGUGCACAGCAGGGCGGGGUAGGACCCCAGCCCCUUGGAAUUCUCGGGUGUCAAGG` has a log2 enrichment of 1.13.

Block 3
Target: Interferon regulatory factor 7, full length, phosphomimetic (IRF7, Homo sapiens, UniProt Q92985, residues 1-503, S471D/S472D/S475D/S476D/S477D/S483D/S484D/S487D)
Technique: protein-binding microarray
Molecule type: double-stranded DNA, one strand shown
Sample: in vitro
Concentration: 2200 nM top
Setting: 60-bp whole probe
Together with: salmon DNA 0.4 mg/ml
Reference: random background probes
Reading: higher = stronger binding
Residues (chain): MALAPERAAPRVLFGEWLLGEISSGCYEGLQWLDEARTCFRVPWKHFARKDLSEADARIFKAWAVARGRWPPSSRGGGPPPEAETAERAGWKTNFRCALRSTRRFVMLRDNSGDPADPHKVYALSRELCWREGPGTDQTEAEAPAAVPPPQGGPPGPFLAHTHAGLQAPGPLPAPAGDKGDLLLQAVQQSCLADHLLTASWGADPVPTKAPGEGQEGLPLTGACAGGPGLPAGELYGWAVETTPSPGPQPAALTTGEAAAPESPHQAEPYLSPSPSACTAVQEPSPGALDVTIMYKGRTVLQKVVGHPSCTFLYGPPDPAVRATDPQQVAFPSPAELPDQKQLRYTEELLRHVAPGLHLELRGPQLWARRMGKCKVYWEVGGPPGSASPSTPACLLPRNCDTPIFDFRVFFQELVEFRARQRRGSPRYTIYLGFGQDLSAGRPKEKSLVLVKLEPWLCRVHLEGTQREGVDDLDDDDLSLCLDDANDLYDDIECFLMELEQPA
`GCCTAGCACTTAGGACTGAGGTATCGGTTAGTGCTAGTCTTGATTCGCTTGACGCTGCTG`: “fitted relative affinity” -0.469 z-score.
`GCCTAGCACCATCATTGCTTTCTCTTTCAGTGCTAGGTCTTGATTCGCTTGACGCTGCTG`: “fitted relative affinity” 4.6 z-score.
`GCCTAGCACGACGGTTTAGACTATCGGGACGTGCTAGTCTTGATTCGCTTGACGCTGCTG`: “fitted relative affinity” 0.414 z-score.

Mixed results
The fold induction of `PhoQ, residues 284 288 289 292 302 303 SCCLKL` is reported as 1.39 (PhoP, residues 12 14 15 18 19 DLLYY (Escherichia coli, UniProt P23836); Sort-seq, refers to: YFP reporter; E. coli; PhoQ-PhoP variant library, together with: 10 µM Mg2+; reference: high Mg2+ state, higher = stronger signaling).

Repeated from above (block 3):
`GCCTAGCACGACGGTTTAGACTATCGGGACGTGCTAGTCTTGATTCGCTTGACGCTGCTG`: “fitted relative affinity” 0.414 z-score.
